Results collected from several papers.
Values joined by “and” are separate records of one study, mostly repeats; a detail may differ. Numbers after ± are the reported error.

| SMILES | system | conditions | measurement | value |
| --- | --- | --- | --- | --- |
| C#CCN(CCCNC(=O)CCCCC[N+]1=C(/C=C/C2=C(Cl)C(=C/C=C3\N(CCCCCC(=O)[O-])c4ccccc4C3(C)C)/CCC2)C(C)(C)c2ccccc21)CCCOc1ccc(Cl)cc1Cl | C57BL mouse, plasma | intravenous, 5 mg/kg | clearance | 0.129 mL/min/kg |
| N=C(N)NCCC[C@@H]1NC(=O)[C@H](Cc2c[nH]c3ccccc23)NC(=O)[C@@H](CC2CCCCC2)NC(=O)[C@@H]2CCCN2C(=O)[C@@H](NC(=O)CCc2ccccc2)CCCNC1=O | C57BL/6J mouse, plasma | intravenous, 1 mg/kg | clearance | 147 µL/min |
| COc1ccc(-c2ccn(CC[C@](C)(C(=O)NO)S(C)(=O)=O)c(=O)c2)c(F)c1 | CF-1 mouse, female | subcutaneous, 75 mg/kg | clearance | 72 ± 11.2 mL/min/kg |
| Cc1ccc(CNC(=O)Cc2ccc(-c3ccc(OCCN4CCOCC4)cc3)cn2)cc1 | ICR mouse | intravenous, 2 mg/kg | clearance | 43 ± 2.5 mL/min/kg |
| CC(C)(C)NCC(SS(=O)(=O)O)c1ccccc1 (centres unmarked) | Swiss Webster CFW mouse, female, plasma | intravenous, 15 mg/kg, from 0 h to last | clearance | 99.6 mL/min/kg |
| CCc1nc(N)nc(N)c1C#C[C@H](C)c1cc(-c2cc(C)nc(C)c2)ccc1Cl | mouse, plasma | intraperitoneal, 5 mg/kg | clearance | 5.96 mL/min/kg and 6 mL/min/kg |
| CC(C)C[C@H](NC(=O)[C@H](C)NC(=O)[C@H](C)NC(=O)[C@H](CCC(N)=O)NC(=O)[C@H](C)NC(=O)[C@H](CO)NC(=O)[C@H](CC(C)C)NC(=O)[C@H](C)NC(=O)[C@@H](NC(=O)[C@H](C)NC(=O)[C@H](Cc1ccc(O)cc1)NC(=O)[C@H](CO)NC(=O)[C@H](CCCCN)NC(=O)[C@H](C)NC(=O)[C@H](Cc1ccccc1)NC(=O)[C@H](CCCCN)NC(=O)[C@H](C)NC(=O)[C@H](Cc1ccccc1)NC(=O)[C@H](CCCCN)NC(=O)[C@H](CCCCN)NC(=O)[C@H](C)NC(=O)[C@H](Cc1ccccc1)NC(=O)[C@H](CCCCN)NC(=O)[C@H](C)NC(=O)[C@H](Cc1ccccc1)NC(=O)[C@H](CCCCN)NC(=O)[C@H](CCCCN)NC(=O)[C@H](C)NC(=O)[C@H](Cc1ccccc1)NC(=O)[C@H](CCCCN)NC(=O)[C@H](C)NC(=O)[C@H](Cc1ccccc1)NC(=O)[C@@H](N)CCCCN)C(C)C)C(=O)N[C@@H](C)C(=O)N[C@@H](CCCNC(=N)N)C(=O)N[C@@H](CCCNC(=N)N)C(=O)O | C57BL/6 mouse, male | intravenous, 0.8 mg/kg | clearance | 5.22 ± 0.683 mL/min/kg |
| CCS(=O)(=O)c1ccccc1C(=O)N1CCN(c2nc3ccc(F)cc3s2)C[C@@H]1C | mouse | oral, 3 mg/kg | clearance | 49 ± 8 mL/min/kg |
| CN(O)C(=O)CCC(=O)NCCCN(CCCCN(CCCNC(=O)CCC(=O)N(C)O)C(=O)CCC(=O)N(C)O)C(=O)CCC(=O)N(C)O.[89Zr] | BALB/c mouse, healthy | most tissues | clearance time | ≤ 24 h |
| CCCCCCC[C@@H](O)CC(=O)N[C@H](CCN)C(=O)N[C@H]1CCNC(=O)[C@H](CC(C)C)NC(=O)[C@H](CCN)NC(=O)[C@H](CCN)NC(=O)[C@H](CC(C)C)NC(=O)[C@@H](Cc2ccccc2)NC(=O)[C@H](CCN)NC1=O | mouse | intravenous, 10 mg/kg | clearance | 4.1 mL/min/kg |
| CN1/C(=C/C=C/c2cc(-c3ccccc3)cc(-c3ccccc3)[o+]2)C(C)(C)c2ccccc21 | CD1 mouse male, plasma | intravenous, 1 mg/kg | clearance | 711 mL/min/kg |
